{"data": "Published values pooled from the literature", "note": "Compare with care: the assays were run in different laboratories. ± marks the error that the study gave."}
{"Structure (SMILES)": "O=C(c1nc2n(n1)[C@H](c1ccccc1)C[C@@H]2F)C1CC1", "test system": "human, plasma", "conditions": "oral, 75 mg, single dose, high-fat meal, geometric mean", "measurement": "apparent volume of distribution (Vz/F)", "result": "111 L"}
{"Structure (SMILES)": "COc1cc(NC(=O)CCN2CCC(OC(=O)Nc3ccccc3-c3ccccc3)CC2)c(Cl)cc1CNC[C@H](O)c1ccc(O)c2[nH]c(=O)ccc12", "test system": "human COPD patients, plasma", "conditions": "inhaled, 800 µg once daily or 400 µg twice daily, day 28, log population model estimate", "measurement": "apparent clearance", "result": "6.85 L/h"}
{"Structure (SMILES)": "Cn1cnc2c(F)c(Nc3ccc(Br)cc3Cl)c(C(=O)NOCCO)cc21", "test system": "human cancer patients, plasma", "conditions": "oral, 75 mg, cycle 1 day 1", "measurement": "apparent clearance CL/F", "result": "16.4 ± 7.08 L/h"}
{"Structure (SMILES)": "NC1(c2ccc(-c3nc4ccn5c(=O)[nH]nc5c4cc3-c3ccccc3)cc2)CCC1", "test system": "human patients, plasma", "conditions": "oral, 135 mg, alone, expansion", "measurement": "apparent clearance (CL/F)", "result": "435 ± 125 mL/min"}
{"Structure (SMILES)": "C[C@@H](Oc1cc(-c2cnn(C3CCNCC3)c2)cnc1N)c1c(Cl)ccc(F)c1Cl", "test system": "healthy human", "conditions": "oral, 250 mg single fasted, arithmetic mean", "measurement": "apparent oral clearance", "result": "110 ± 42.2 L/h"}
{"Structure (SMILES)": "CCN(CC)CCNC(=O)c1c(C)[nH]c(/C=C2\\C(=O)Nc3ccc(F)cc32)c1C", "test system": "human, hepatocellular carcinoma", "conditions": "oral, 37.5 mg once daily", "measurement": "apparent central volume (V1/F)", "result": "1780 L"}
{"Structure (SMILES)": "CO[C@H]1C[C@@H]2CC[C@@H](C)[C@@](O)(O2)C(=O)C(=O)N2CCCC[C@H]2C(=O)O[C@H]([C@H](C)C[C@@H]2CC[C@@H](O)[C@H](OC)C2)CC(=O)[C@H](C)/C=C(\\C)[C@@H](O)[C@@H](OC)C(=O)[C@H](C)C[C@H](C)/C=C/C=C/C=C/1C", "test system": "human", "conditions": "oral, dose not given", "measurement": "apparent oral clearance", "result": "18.7 L/h"}
{"Structure (SMILES)": "C=CC[C@@H]1/C=C(\\C)C[C@H](C)C[C@H](OC)[C@H]2O[C@@](O)(C(=O)C(=O)N3CCCC[C@H]3C(=O)O[C@H](/C(C)=C/[C@@H]3CC[C@@H](O)[C@H](OC)C3)[C@H](C)[C@@H](O)CC1=O)[C@H](C)C[C@@H]2OC", "test system": "healthy humans, whole blood", "conditions": "oral, 5 mg single dose, with: isavuconazole 200 mg once daily after loading", "measurement": "apparent oral clearance (CL/F)", "result": "8 L/h"}
{"Structure (SMILES)": "Cc1cc(/C=C/C#N)cc(C)c1Nc1ccnc(Nc2ccc(C#N)cc2)n1", "test system": "human, female, plasma", "conditions": "oral, 25 mg", "measurement": "apparent volume of distribution", "result": "705 L"}
{"Structure (SMILES)": "O=C(NC[C@H](O)CO)c1ccncc1Nc1ccc(I)cc1F", "test system": "human", "conditions": "oral, 60 mg, single dose alone", "measurement": "apparent volume of distribution", "result": "395 L"}
{"Structure (SMILES)": "Cc1nc2c(F)cc(-c3nc(Nc4ccc(CN5CCNCC5)cn4)ncc3F)cc2n1C(C)C", "test system": "human patients", "conditions": "oral, 150 mg single, geometric mean", "measurement": "apparent hepatic clearance", "result": "21.6 L/h"}
{"Structure (SMILES)": "CC(C)NC[C@@H](C(=O)N1CCN(c2ncnc3c2[C@H](C)C[C@H]3O)CC1)c1ccc(Cl)cc1", "test system": "human, Moderate hepatic function, plasma", "conditions": "oral, 100 mg single dose, NCI classification, geometric mean", "measurement": "apparent volume of distribution", "result": "9270 L"}
{"Structure (SMILES)": "CCCOc1ccc([C@H]2CNC(=O)N2c2ccc3[nH]cnc3c2)cc1", "test system": "human volunteers fasted, plasma", "conditions": "oral tablet, 1800 mg single dose, day 1, geometric mean", "measurement": "apparent terminal half-life", "result": "5.56 h"}
{"Structure (SMILES)": "CC(C)[C@H](N)C(=O)NCCCS(=O)(=O)O", "test system": "human, plasma", "conditions": "oral, dose not given, single dose, across doses", "measurement": "apparent half-life", "result": "0.7 to 0.81 h"}
{"Structure (SMILES)": "C=CC(=O)N1CCC([C@@H]2CCNc3c(C(N)=O)c(-c4ccc(Oc5ccccc5)cc4)nn32)CC1", "test system": "human", "conditions": "oral, 160 mg, single dose, mean", "measurement": "apparent volume of distribution", "result": "966 L"}
{"Structure (SMILES)": "CNC(=O)c1cc(Oc2ccc(NC(=O)Nc3ccc(Cl)c(C(F)(F)F)c3)cc2)ccn1", "test": "population PK model, bootstrap median", "test system": "human, AML patients", "conditions": "oral, dose not given", "measurement": "apparent volume of distribution", "result": "167 L"}
{"Structure (SMILES)": "COc1cccc(-c2ccc(NC(=O)C3=C(C(=O)O)CCC3)c(F)c2)c1", "test system": "human, male, plasma", "conditions": "oral, 50 mg once daily, day 13, geometric mean", "measurement": "apparent volume Vz/F", "result": "12.9 L"}
{"Structure (SMILES)": "CC(C)NCC1CCc2cc(CO)c([N+](=O)[O-])cc2N1 (stereo not drawn)", "test system": "healthy human, plasma", "conditions": "oral, 1000 mg", "measurement": "apparent oral clearance", "result": "43 mL/min/kg"}
{"note": "A few entries again:"}
{"Structure (SMILES)": "CC(C)NC[C@@H](C(=O)N1CCN(c2ncnc3c2[C@H](C)C[C@H]3O)CC1)c1ccc(Cl)cc1", "test system": "human, Moderate hepatic function, plasma", "conditions": "oral, 100 mg single dose, NCI classification, geometric mean", "measurement": "apparent volume of distribution", "result": "9270 L"}
{"Structure (SMILES)": "CCCOc1ccc([C@H]2CNC(=O)N2c2ccc3[nH]cnc3c2)cc1", "test system": "human volunteers fasted, plasma", "conditions": "oral tablet, 1800 mg single dose, day 1, geometric mean", "measurement": "apparent terminal half-life", "result": "5.56 h"}
